Literature values that unrelated publications cite.
Each line is one published result; not all experiments were run side by side. ± gives the spread as reported. Converted amounts (≈) assume the structure as drawn.

| Compound | target or system | test | system | setting | how to read | endpoint | result |
| --- | --- | --- | --- | --- | --- | --- | --- |
| CC(CN(C)C)CN1c2ccccc2CCc2ccccc21 (stereo not shown) |  |  |  |  |  | logP | 4.2 |
| Cc1c(Cl)c(C)[n+]([O-])c(Cl)c1-c1noc(-c2cc(O)c(O)c([N+](=O)[O-])c2)n1 |  |  | Japanese human | 25 mg |  | AUC(0-t) | 2010 ng·h/mL |
| CNCc1cc(-c2ccccc2F)n(S(=O)(=O)c2cccnc2)c1 |  |  | human | oral, single dose, NG, added: clarithromycin, multiple doses | reference: with over without clarithromycin | AUC(0-inf) ratio | ~1.58 fold |
| COc1cc(Nc2ncc(F)c(Nc3ccc4c(n3)N(COP(=O)(O)O)C(=O)C(C)(C)O4)n2)cc(OC)c1OC |  |  | rheumatoid arthritis patients | dose not given, month 1 | reference: baseline | systolic blood pressure increase | ~3 mmHg |
| CC[C@@H](C)[C@@H](NC(=O)[C@@H](CCCCN)NC(=O)[C@H](CCCCN)NC(=O)[C@H](Cc1ccccc1)NC(=O)[C@H](CC(C)C)NC(=O)[C@H](CCCCN)NC(=O)[C@@H](N)CCCCN)C(=O)N[C@H](CC(C)C)C(=O)N[C@H](CCCCN)C(=O)N[C@H](Cc1ccc(O)cc1)C(=O)N[C@H](CC(C)C)C(N)=O |  |  | horse erythrocytes 5 % v/v | 150 µM |  | hemolysis | 0 ± 0.7% |
| Cc1c(Cl)cccc1Nc1ccccc1C(=O)O |  |  | plasma | concentration not given |  | Cmax | 4.16 µM |
| Nc1nc(NC2CC2)c2ncn([C@H]3C=C[C@@H](CO)C3)c2n1 |  |  | Japanese HIV-infected patients | 600 mg, single dose, fasted, added: lamivudine 300 mg |  | AUC(0-inf) | 12900 ng·h/mL |
| CCCCC1=NC2(CCCC2)C(=O)N1Cc1ccc(-c2ccccc2S(=O)(=O)Nc2noc(C)c2C)c(COCC)c1 |  |  | healthy human volunteers | dose not given, added: cyclosporine | reference: without cyclosporine | AUCinf increase | 70% |
| CN(C)CCC[C@@]1(c2ccc(F)cc2)OCc2cc(C#N)ccc21 |  |  | human |  | reference: patients over 65 years over younger | mean concentration ratio | 1.8 fold |
| Clc1ccc(COC(Cn2ccnc2)c2ccc(Cl)cc2Cl)c(Cl)c1 (stereo not shown) |  |  | juvenile Chinook salmon, whole body wet weight | concentration not given, field-collected |  | maximum whole-body concentration | 1.8 ng/g |
| Cc1nc2cccc(OCC(C)(C)C(=O)NC(C)C)c2c(N)c1C(=O)O |  | phase I biotransformation | rat | 60 min | reference: compound | metabolism | ≤ 0.1% |
| COc1cccc2c1C(=O)c1c(O)c3c(c(O)c1C2=O)C[C@@](O)(C(=O)CO)C[C@@H]3O[C@H]1C[C@H](N)[C@H](O)[C@H](C)O1 | hiPSC-derived cardiomyocytes | contractility |  | concentration not given, 72 h, at effective concentration | reference: baseline | log2 fold change | 0.6 |
| CCN(CC)CCNC(=O)c1c(C)[nH]c(/C=C2\C(=O)Nc3ccc(F)cc32)c1C |  |  | patients | dose not given, all grades |  | patients with thrombocytopenia | 65% |
| O=C(O)CNC(=O)c1ccccc1[131I] |  |  | normal rat, lung | 60 min, added: co-injected 99mTc-1 |  | percent injected dose | 0.1 ± 0.1 %ID |
| CC(C)(C)NC(=O)[C@@H]1C[C@@H]2CCCC[C@@H]2CN1C[C@@H](O)[C@H](Cc1ccccc1)NC(=O)[C@H](CC(N)=O)NC(=O)c1ccc2ccccc2n1 |  |  | plasma | concentration not given |  | Cmax | 0.37 µM |
| CC1(COc2ccc3c(c2)ncn3-c2ccc3cccc(N4CCC(N)CC4)c3n2)COC1 |  | microdialysis | mouse, high-grade glioma model, tumour extracellular fluid | dose not given |  | tumour-to-unbound plasma ratio | ~63% |
| Nc1nc2c(ncn2[C@@H]2O[C@@H]3COP(=O)(O)O[C@H]3[C@H]2O)c(=O)[nH]1 |  |  | methanol/water |  |  | log Kw | 0.77 |
| CC(C)(S)[C@@H](N)C(=O)O |  |  | plasma | concentration not given |  | Cmax | 53.6 µM |
| Cc1cn([C@H]2C=C[C@@H](CO)O2)c(=O)[nH]c1=O |  |  | octanol-water |  |  | logP | -0.8 |
| CC1=NS(=O)(=O)c2cc(Cl)ccc2N1 |  |  | plasma | concentration not given |  | Cmax | 152 µM |
| CCCC(=O)NCCCC[C@H](NC(=O)[C@H](CCCCN)NC(=O)[C@H](CC(C)C)NC(=O)[C@@H](NC(=O)[C@H](CCCCN)NC(=O)[C@H](CCCCN)NC(=O)[C@@H](Cc1ccccc1)NC(=O)[C@H](CC(C)C)NC(=O)[C@H](CCCCN)NC(=O)[C@H](CCCCN)NC(C)=O)[C@@H](C)CC)C(=O)N[C@@H](CC(C)C)C(N)=O |  |  | horse erythrocytes 5 % v/v | 150 µM |  | hemolysis | 0% |
| CC[C@H](C)[C@H](NC(=O)[C@@H](NC(=O)[C@@H](NC(=O)CNC(=O)CNC(=O)[C@@H](NC(=O)[C@H](CCSC)NC(=O)[C@@H](N)CC(C)C)C(C)C)C(C)C)C(C)C)C(=O)N[C@@H](C)C(=O)O |  | filtration | sodium phosphate buffer | pH 7.4 |  | solubility | 132 ± 29 µM (≈ 113 µg/mL) |

| Compound | target or system | test | system | setting | how to read | endpoint | result |
| --- | --- | --- | --- | --- | --- | --- | --- |
| Nc1nc2c(nc(Sc3ccc(Cl)cc3)n2C2O[C@@H]3COP(=O)(O)O[C@H]3[C@H]2O)c(=O)[nH]1 (stereo in doubt) | PDE6 | cyclic nucleotide hydrolysis, substrate or inhibitor, isothermal titration calorimetry |  |  |  | Km or Ki | 41.3 µM |
| Cc1ccccc1-c1cc(N2CCN(C)CC2)ncc1N(C)C(=O)C(C)(C)c1cc(C(F)(F)F)cc(C(F)(F)F)c1 |  |  | healthy volunteers, plasma | oral, dose not given, netupitant-palonosetron alone, ketoconazole study |  | CL/F | 18.4 L/h |
| COc1cc(N2CCC(N3CCN(C)CC3)CC2)ccc1Nc1ncc(Cl)c(Nc2ccccc2P(C)(C)=O)n1 |  |  | healthy human | oral, 180 mg, added: high-fat meal | reference: fasted | AUC(0-inf) | no effect |
| CCC1=C(C)CN(C(=O)NCCc2ccc(S(=O)(=O)NC(=O)N[C@H]3CC[C@H](C)CC3)cc2)C1=O |  |  | plasma | concentration not given |  | Cmax | 0.5 µM |
| CO[C@H]1C[C@@H]2CC[C@@H](C)[C@@](O)(O2)C(=O)C(=O)N2CCCC[C@H]2C(=O)O[C@H]([C@H](C)C[C@@H]2CC[C@@H](OC(=O)C(C)(CO)CO)[C@H](OC)C2)CC(=O)[C@H](C)/C=C(\C)[C@@H](O)[C@@H](OC)C(=O)[C@H](C)C[C@H](C)/C=C/C=C/C=C/1C |  |  | human | intravenous, 25 mg once weekly, day 7 or 28 |  | terminal half-life | 12.8 h |
| Nc1ccn([C@@H]2CS[C@H](CO)O2)c(=O)n1 |  |  | healthy human volunteers | oral, 300 mg single dose, fasted, added: abacavir 600 mg, dolutegravir 50 mg |  | AUC(0-t) | 12700 ng·h/mL |
| C[C@@H]1O[C@@H](OC[C@H]2O[C@@H](Oc3c(-c4ccc(OCCO)c(OCCO)c4)oc4cc(OCCO)cc(O)c4c3=O)[C@H](O)[C@@H](O)[C@@H]2O)[C@H](O)[C@H](O)[C@H]1O |  |  | plasma | concentration not given |  | Cmax | 0.004 µM |
| O=C1c2cccc3c2[C@H](CCC3)CN1[C@@H]1CN2CCC1CC2 |  |  | cancer patients, plasma | oral, dose not given, netupitant-palonosetron fixed combination, added: etoposide 35-100 mg/m^2 IV |  | AUC(0-inf) | 49.3 ng·h/mL |
| Oc1ccc(Nc2nc(-c3ccc(Cl)cc3)cs2)cc1 |  |  | BALB/c mouse | intraperitoneal, 50 mg/kg, 1 h |  | plasma concentration | 3.5 ± 4.9 µM |
| C[C@H](N[C@@H](CCc1ccccc1)C(=O)O)C(=O)N1CCC[C@H]1C(=O)O |  |  | n-octanol/water | pH 7.4 |  | logD | -1 |
| CC(C)C[C@H](NC(=O)[C@H](Cc1c[nH]c2ccccc12)NC(=O)[C@H](CCCCN)NC(=O)[C@@H](NC(=O)[C@H](Cc1ccccc1)NC(=O)[C@H](CCC(=O)O)NC(=O)[C@H](CCC(=O)O)NC(=O)[C@H](C)NC(=O)[C@H](CCCNC(=N)N)NC(=O)[C@H](C)NC(=O)C(C)(C)NC(=O)[C@H](CC(=O)O)NC(=O)[C@H](CC(C)C)NC(=O)[C@H](Cc1ccc(O)cc1)NC(=O)[C@H](CCCCN)NC(=O)[C@H](CO)NC(=O)[C@H](Cc1ccc(O)cc1)NC(=O)[C@H](CC(=O)O)NC(=O)[C@H](CO)NC(=O)[C@@H](NC(=O)[C@H](Cc1ccccc1)NC(=O)[C@@H](NC(=O)CNC(=O)[C@H](CCC(N)=O)NC(=O)[C@H](CO)NC(=O)[C@@H](N)Cc1c[nH]cn1)[C@@H](C)O)[C@@H](C)O)C(C)C)C(=O)N[C@@H](CCC(=O)O)C(=O)N[C@@H](CO)C(=O)N[C@H](C(=O)O)[C@@H](C)O |  |  | aqueous solution | body temperature |  | in-use stability | ≥ 7 days |
| O=c1c2nc(Br)n([C@@H]3O[C@@H]4COP(=O)(O)O[C@H]4[C@H]3O)c2nc2[nH]c(-c3ccccc3)cn12 | PDE5 | cyclic nucleotide hydrolysis, substrate or inhibitor, isothermal titration calorimetry |  |  |  | Km or Ki | 5.29 µM |
| C[C@@H]1CCN(C(=O)CC#N)C[C@@H]1N(C)c1ncnc2[nH]ccc12 |  |  | hepatic impairment patients | oral, 10 mg | reference: healthy subjects | AUC increase | 72.6% |
| CC[C@H](C)CCCCC(=O)N[C@@H](CCN)C(=O)N[C@H](C(=O)N[C@@H](CCN)C(=O)N[C@H]1CCNC(=O)[C@H]([C@@H](C)O)NC(=O)[C@H](CCN)NC(=O)[C@H](CCN)NC(=O)[C@H](CC(C)C)NC(=O)[C@@H](Cc2ccccc2)NC(=O)[C@H](CCN)NC1=O)[C@@H](C)O |  | population PK model | patients, renal insufficiency | intravenous |  | total clearance | 1.58 L/h |
| CCc1c(C#N)c(SC(C(N)=O)c2ccccc2)nc(N(C)C)c1C#N (stereo not shown) |  |  | transgenic sickle cell disease mice | po, dose not given |  | tolerability | not toxic |
| CN(C)CCC(c1ccc(Cl)cc1)c1ccccn1 (stereo not shown) |  |  | rat | added: cyclosporin A |  | log brain permeability-surface product | -1.65 mL/g/s |
| CNC(=O)c1cc(Oc2ccc(NC(=O)Nc3ccc(Cl)c(C(F)(F)F)c3)c(F)c2)ccn1 | hiPSC-derived cardiomyocytes | contractility |  | concentration not given, 72 h, at effective concentration | reference: baseline | log2 fold change | 0.84 |
| O=C1c2ccccc2-c2c1c1ccc([N+](=O)[O-])cc1c(=O)n2C[C@H](O)CO | melanoma UACC-62 | cell growth |  |  |  | GI50 | 0.098 µM |
| C[C@@]12CC[C@H]3c4ccc(O)cc4CC[C@@H]3[C@H]1CC[C@H]2O (single isomer, unassigned) | HT-22 | cell protection |  | added: glutamate 20 mM |  | EC50 | 1.17 µM |
| N#CC[C@H](C1CCCC1)n1cc(-c2ncnc3[nH]ccc23)cn1 |  |  | rat | dose not given | reference: brain over plasma, higher = lower brain level | brain to plasma concentration ratio | 29 fold |
| COc1cccc(CCc2ccccc2OCC(CN(C)C)OC(=O)CCC(=O)O)c1 (racemic) |  |  | human | oral, 50 mg single dose as hydrochloride, geometric mean |  | AUC | 266 ng·h/mL |

For quick reference, copied from above:
| Compound | target or system | test | system | setting | how to read | endpoint | result |
| --- | --- | --- | --- | --- | --- | --- | --- |
| CC1(COc2ccc3c(c2)ncn3-c2ccc3cccc(N4CCC(N)CC4)c3n2)COC1 |  | microdialysis | mouse, high-grade glioma model, tumour extracellular fluid | dose not given |  | tumour-to-unbound plasma ratio | ~63% |
| C[C@H](N[C@@H](CCc1ccccc1)C(=O)O)C(=O)N1CCC[C@H]1C(=O)O |  |  | n-octanol/water | pH 7.4 |  | logD | -1 |
| COc1cc(N2CCC(N3CCN(C)CC3)CC2)ccc1Nc1ncc(Cl)c(Nc2ccccc2P(C)(C)=O)n1 |  |  | healthy human | oral, 180 mg, added: high-fat meal | reference: fasted | AUC(0-inf) | no effect |
| C[C@@H]1O[C@@H](OC[C@H]2O[C@@H](Oc3c(-c4ccc(OCCO)c(OCCO)c4)oc4cc(OCCO)cc(O)c4c3=O)[C@H](O)[C@@H](O)[C@@H]2O)[C@H](O)[C@H](O)[C@H]1O |  |  | plasma | concentration not given |  | Cmax | 0.004 µM |
| O=C(O)CNC(=O)c1ccccc1[131I] |  |  | normal rat, lung | 60 min, added: co-injected 99mTc-1 |  | percent injected dose | 0.1 ± 0.1 %ID |
| CC1=NS(=O)(=O)c2cc(Cl)ccc2N1 |  |  | plasma | concentration not given |  | Cmax | 152 µM |
